Results from different studies.
Compare with care: the assays were run in different laboratories.
Organism: Staphylococcus aureus

For `N=C(N)NCCC[C@@H]1NC(=O)[C@H](CCCNC(=N)N)NC(=O)[C@H](CCCNC(=N)N)NC(=O)[C@@H](CCCNC(=N)N)NC(=O)[C@H](Cc2ccc3ccccc3c2)NC(=O)[C@H](Cc2ccc3ccccc3c2)NC(=O)[C@H](Cc2ccc3ccccc3c2)NC1=O`, the MIC was 4 µg/mL (1195201, multidrug-resistant).
The MIC of `CC[C@H](C)[C@H](NC(=O)[C@@H](CCCNC(=N)N)NC(=O)[C@H](CCCNC(=N)N)NC(=O)[C@@H]1CCCN1C(=O)[C@@H]1CCCN1C(=O)[C@H](CCCNC(=N)N)NC(=O)[C@@H]1CCCN1C(=O)[C@H](CCCNC(=N)N)NC(=O)[C@@H]1CCCN1C(=O)[C@H](CC(C)C)NC(=O)[C@H](Cc1ccccc1)NC(=O)[C@@H]1CCCN1C(=O)[C@@H]1CCCN1C(=O)[C@H](CCCCN)NC(=O)[C@H](CC(=O)O)NC(=O)[C@@H](N)C(C)C)C(=O)N[C@@H](Cc1ccc(O)cc1)C(=O)N[C@@H](CC(N)=O)C(=O)N[C@H](CCCNC(=N)N)C(N)=O` is reported as greater than 128 µg/mL (broth microdilution; DSM 6247; 18 h, 37 °C, 25% MHB2).
With `c1ccc(CN2CCOCCOCCN(CCCCCCCCN3CCOCCOCCN(CCCCCCCCN4CCOCCOCCN(Cc5ccccc5)CCOCCOCC4)CCOCCOCC3)CCOCCOCC2)cc1` the MIC was 128 µM (1199B (NorA overexpressing)).
For `CC[C@H](C)[C@H](N)C(=O)N[C@@H](CCCNC(=N)N)C(=O)N[C@H](C(=O)N[C@@H](Cc1c[nH]c2ccccc12)C(=O)N[C@@H](Cc1ccccc1)C(=O)N[C@H](C(=O)N[C@@H](CCCCN)C(=O)N[C@H](C(=O)N[C@@H](CCCNC(=N)N)C(=O)N[C@@H](CCCCN)C(=O)N[C@@H](CCSC)C(=O)N[C@@H](CCCCN)C(=O)N[C@@H](C)C(=O)N[C@H](C(=O)N[C@@H](Cc1ccc(O)cc1)C(=O)N[C@@H](Cc1c[nH]cn1)C(N)=O)[C@@H](C)CC)C(C)C)[C@@H](C)CC)C(C)C`, the MIC was 100 µM (broth dilution; ATCC 25923, Mueller-Hinton broth; 24 h, 37 °C).
With `CC(C)C[C@@H](NC(=O)[C@@H](CCCNC(=N)N)NC(=O)[C@H](N)CCCNC(=N)N)C(=O)N[C@H](CC(C)C)C(=O)N[C@H](CCCNC(=N)N)C(=O)N[C@H](CCCCN)C(=O)N[C@H](CC(C)C)C(=O)N[C@H](CCCCN)C(=O)NCC(=O)N[C@H](CCCCN)C(=O)N[C@H](CCCCN)C(=O)N[C@H](CC(C)C)C(=O)N[C@H](Cc1ccc(O)cc1)C(=O)N[C@H](CC(C)C)C(=O)N[C@H](Cc1ccc(O)cc1)C(=O)N[C@H](Cc1ccccc1)C(=O)N[C@H](CCCCN)C(=O)N[C@H](CC(C)C)C(=O)N[C@H](CCC(N)=O)C(=O)N[C@H](CC(C)C)C(=O)N[C@H](CC(C)C)C(=O)N[C@H](CCCCN)C(=O)N[C@H](CCCCN)C(N)=O` the MIC was 4 µM (CCARM 3089, methicillin-resistant, Mueller-Hinton broth; 24 h).
The MIC of `CN[C@H](CC(C)C)C(=O)N[C@H]1C(=O)N[C@@H](CC(N)=O)C(=O)N[C@H]2C(=O)N[C@H]3C(=O)N[C@H](C(=O)N[C@H](C(=O)O)c4cc(O)cc(O)c4-c4cc3ccc4O)[C@H](O)c3ccc(c(Cl)c3)Oc3cc2cc(c3O[C@@H]2O[C@H](CO)[C@@H](O)[C@H](O)[C@H]2O[C@H]2C[C@](C)(NCc3ccc(OCc4cn(CCCCC(=O)N[C@H](C(=O)N[C@@H](CCN)C(=O)N[C@H]5CCNC(=O)[C@H]([C@@H](C)O)NC(=O)[C@H](CCN)NC(=O)[C@H](CCN)NC(=O)[C@H](CC(C)C)NC(=O)[C@@H](CC(C)C)NC(=O)[C@H](CCN)NC5=O)[C@@H](C)O)nn4)c(OC)c3)[C@H](O)[C@H](C)O2)Oc2ccc(cc2Cl)[C@H]1O` is reported as 0.093 µM (MRSA USA300).
With `CC(C)[C@H](NC(=O)CNC(=O)CNC(=O)[C@H](Cc1ccc(O)cc1)NC(=O)[C@H](CS)NC(=O)[C@@H](NC(=O)[C@H](Cc1c[nH]c2ccccc12)NC(=O)[C@H](Cc1ccccc1)NC(=O)[C@H](CS)NC(=O)[C@H](Cc1c[nH]c2ccccc12)NC(=O)[C@@H](N)CCCNC(=N)N)C(C)C)C(=O)N[C@@H](CS)C(=O)N[C@@H](Cc1ccc(O)cc1)C(=O)N[C@@H](CCCNC(=N)N)C(=O)N[C@@H](CCCNC(=N)N)C(=O)N[C@@H](CS)C(=O)N[C@@H](CCCNC(=N)N)C(=O)O` the MIC was 1.1 µg/mL (broth microdilution; ATCC 25923, Mueller-Hinton broth; 16 to 20 h, 37 °C).
For `CC[C@H](C)[C@H](NC(=O)[C@@H](CCCNC(=N)N)NC(=O)[C@H](CCCNC(=N)N)NC(=O)[C@@H]1CCCN1C(=O)[C@@H]1CCCN1C(=O)[C@H](CCCNC(=N)N)NC(=O)[C@H](Cc1c[nH]c2ccccc12)NC(=O)[C@H](CCCNC(=N)N)NC(=O)[C@@H]1CCCN1C(=O)[C@H](CC(C)C)NC(=O)[C@H](Cc1ccc(O)cc1)NC(=O)[C@@H]1CCCN1C(=O)[C@@H]1CCCN1C(=O)[C@H](CCCCN)NC(=O)[C@H](CC(=O)O)NC(=O)[C@@H](N)C(C)C)C(=O)N[C@@H](Cc1ccc(O)cc1)C(=O)N[C@@H](CC(N)=O)C(=O)N[C@H](CCCNC(=N)N)C(N)=O`, the MIC was 128 µg/mL (broth microdilution; DSM 6247; 18 h, 37 °C, 25% MHB2).
With `CC(C)C[C@H](NC(=O)[C@H](CCCNC(=N)N)NC(=O)[C@H](C)NC(=O)[C@H](CC(C)C)NC(=O)[C@H](CCCNC(=N)N)NC(=O)[C@H](C)NC(=O)[C@H](CCCCN)NC(=O)[C@H](CC(C)C)NC(=O)[C@H](CCCNC(=N)N)NC(=O)[C@H](Cc1ccc(O)cc1)NC(=O)[C@H](CC(C)C)NC(=O)[C@H](CCCNC(=N)N)NC(=O)[C@H](C)NC(=O)[C@H](CCCNC(=N)N)NC(=O)[C@H](CC(C)C)NC(=O)[C@H](CCCCN)NC(=O)[C@H](C)NC(=O)[C@H](CC(C)C)NC(=O)[C@H](CCCNC(=N)N)NC(=O)[C@H](C)NC(=O)[C@@H](N)CCCCN)C(N)=O` the MIC was 8.8 µM (broth microdilution; ATCC 6538; 24 h).
`CC1CCN(C(=O)c2cccc(NC(=O)Nc3ccccc3)c2)CC1` has an MIC of greater than 64 µg/mL (checkerboard, item: ceftobiprole; CRB, PBP4 overexpressor; 25 µM).
The MIC of `C#CCOc1ccc(CN[C@@]2(C)C[C@H](O[C@H]3[C@H](Oc4c5cc6cc4Oc4ccc(cc4Cl)[C@@H](O)[C@@H](NC(=O)[C@@H](CC(C)C)NC)C(=O)N[C@@H](CC(N)=O)C(=O)N[C@H]6C(=O)N[C@H]4C(=O)N[C@H](C(=O)N[C@H](C(=O)N[C@@H](CCCNC(=N)N)C(N)=O)c6cc(O)cc(O)c6-c6cc4ccc6O)[C@H](O)c4ccc(c(Cl)c4)O5)O[C@H](CO)[C@@H](O)[C@@H]3O)O[C@@H](C)[C@H]2O)cc1OC` is reported as 4 µg/mL (broth microdilution; VISA NRS402, tryptic soy broth; 20 to 24 h, 37 °C, 0.002% polysorbate 80).
With `CC[C@H](C)[C@@H]1NC(=O)[C@H](CO)NC(=O)C(C)(CCCCN)NC(=O)[C@@H]2CSSC[C@@H](C(=O)N[C@@H](Cc3ccc(O)cc3)C(N)=O)NC(=O)[C@H](CCCCN)NC(=O)[C@@H]3CSSC[C@H](NC(=O)[C@H](CCCNC(=N)N)NC(=O)C(C)(CC(C)C)NC(=O)[C@H](CC(=O)O)NC(=O)[C@H](CC(=O)O)NC(=O)[C@H](CCC(=O)O)NC(=O)[C@H](CC(N)=O)NC(=O)[C@H](Cc4c[nH]c5ccccc45)NC(=O)[C@@H]4CCCN4C(=O)CNC(=O)[C@H](CC(N)=O)NC(=O)[C@@H](NC(=O)CNC(=O)[C@H](Cc4ccccc4)NC(=O)CN)CSSC[C@H](NC(=O)[C@H](Cc4ccc(O)cc4)NC(=O)CNC(=O)CNC(=O)[C@H](CCCCN)NC(=O)[C@H](Cc4ccc(O)cc4)NC(=O)CNC(=O)[C@H](CCCCN)NC1=O)C(=O)N[C@@H](C)C(=O)N[C@@H](CCCCN)C(=O)NCC(=O)NCC(=O)N[C@@H](Cc1ccccc1)C(=O)N[C@@H](C(C)C)C(=O)N3)C(=O)N[C@@H](Cc1c[nH]cn1)C(=O)NC(C)(C)C(=O)N[C@@H](Cc1c[nH]cn1)C(=O)N2` (stereo partly shown) the MIC was 0.5 µM (473, methicillin-resistant mecA, cation-adjusted Mueller Hinton broth; 18 h, 37 °C).
`c1ccc(CCNC2CCCc3c2[nH]c2ccc(C4CCCCC4)cc32)cc1` (stereo not shown) has an MIC of 4 µg/mL (broth microdilution).

Some of these lines once more:
With `CC(C)C[C@H](NC(=O)[C@H](CCCNC(=N)N)NC(=O)[C@H](C)NC(=O)[C@H](CC(C)C)NC(=O)[C@H](CCCNC(=N)N)NC(=O)[C@H](C)NC(=O)[C@H](CCCCN)NC(=O)[C@H](CC(C)C)NC(=O)[C@H](CCCNC(=N)N)NC(=O)[C@H](Cc1ccc(O)cc1)NC(=O)[C@H](CC(C)C)NC(=O)[C@H](CCCNC(=N)N)NC(=O)[C@H](C)NC(=O)[C@H](CCCNC(=N)N)NC(=O)[C@H](CC(C)C)NC(=O)[C@H](CCCCN)NC(=O)[C@H](C)NC(=O)[C@H](CC(C)C)NC(=O)[C@H](CCCNC(=N)N)NC(=O)[C@H](C)NC(=O)[C@@H](N)CCCCN)C(N)=O` the MIC was 8.8 µM (broth microdilution; ATCC 6538; 24 h).
